Experimental data pooled from the literature.
Organism: Acinetobacter baumannii

Structure (SMILES) = CCn1c(-c2ccc(OC)cc2)c(-c2ccc(OC)cc2)n(CC)c1=[Se+][Au-][P+](CC)(CC)CC.Cl; test = bacterial growth; test system = carbapenem-resistant; setting = 2 h; endpoint = IC50; result = 20 µM
Structure (SMILES) = CC(C)C[C@H](NC(=O)[C@H](Cc1ccc(O)cc1)NC(=O)[C@@H]1CCCN1C(=O)[C@H](CCCNC(=N)N)NC(=O)[C@@H]1CCCN1C(=O)[C@H](CCCCN)NC(=O)[C@H](CC(=O)O)NC(=O)[C@@H]1CCCN1C(=O)[C@H](CCCNC(=N)N)NC(=O)C1(N)CCCCC1)C(=O)N1CCC[C@H]1C(=O)N[C@@H](CCCNC(=N)N)C(=O)N1CCC[C@H]1C(=O)N[C@@H](CCCNC(=N)N)C(=O)N1CCC[C@H]1C(=O)N1CCC[C@H]1C(=O)N[C@@H](CCCNC(=N)N)C(=O)N1CCC[C@H]1C(=O)N[C@H](C(=O)N[C@@H](CCCNC(=N)N)C(=O)N[C@@H](CSc1c(F)c(F)c(SC[C@H](NC(=O)[C@H](CCCNC(=N)N)NC(=O)[C@@H](NC(=O)[C@@H]2CCCN2C(=O)[C@H](CCCNC(=N)N)NC(=O)[C@@H]2CCCN2C(=O)[C@@H]2CCCN2C(=O)[C@H](CCCNC(=N)N)NC(=O)[C@@H]2CCCN2C(=O)[C@H](CCCNC(=N)N)NC(=O)[C@@H]2CCCN2C(=O)[C@H](CC(C)C)NC(=O)[C@H](Cc2ccc(O)cc2)NC(=O)[C@@H]2CCCN2C(=O)[C@H](CCCNC(=N)N)NC(=O)[C@@H]2CCCN2C(=O)[C@H](CCCCN)NC(=O)[C@H](CC(=O)O)NC(=O)[C@@H]2CCCN2C(=O)[C@H](CCCNC(=N)N)NC(=O)C2(N)CCCCC2)C(C)C)C(=O)NN)c(F)c1F)C(=O)NN)C(C)C; test = time-kill; setting = 4 × MIC, 60 min; endpoint = reduction in viable count; result = 2.38 log CFU/mL
Structure (SMILES) = Oc1ccc(C(F)(F)F)cc1-c1nc2c(Cl)cc(Cl)cc2[nH]1; test = colistin potentiator; test system = AB 4112, colistin-resistant; setting = 5 µM; endpoint = MIC of colistin; result = 1 µg/mL
Structure (SMILES) = CC(C)[C@H](N)C(=O)N[C@H]1CSSC[C@@H](C(=O)N[C@H](C(N)=O)C(C)C)NC(=O)[C@H](Cc2c[nH]c3ccccc23)NC(=O)[C@H](CCCCN)NC(=O)[C@H](CCCCN)NC(=O)[C@H](Cc2c[nH]c3ccccc23)NC(=O)[C@H](CCCCN)NC(=O)[C@H](CCCNC(=N)N)NC(=O)[C@H](CCCCN)NC(=O)[C@H](Cc2c[nH]c3ccccc23)NC(=O)[C@H](CCCCN)NC(=O)[C@H](CCCCN)NC(=O)[C@H](Cc2c[nH]c3ccccc23)NC(=O)[C@H](CCCNC(=N)N)NC(=O)[C@H](CCCCN)NC1=O; test system = 22933; setting = 1 x MIC, 37 °C; endpoint = time to complete killing; result = ≤ 30 min
Structure (SMILES) = C[C@H]1COc2c(N3CCN(C)CC3)c(F)cc3c(=O)c(C(=O)N[C@@H](CCCNC(=N)N)C(=O)N[C@@H](Cc4ccc(-c5ccccc5)cc4)C(=O)N[C@@H](CCCNC(=N)N)C(=O)N[C@@H](Cc4ccc(-c5ccccc5)cc4)C(=O)N[C@@H](CCCNC(=N)N)C(N)=O)cn1c23; test system = ATCC 1799; how to read = baseline: IC50 MDCK cells over MIC; endpoint = selectivity index; result = 35.2
Structure (SMILES) = CC(C)C[C@H](NC(=O)[C@H](Cc1ccc(O)cc1)NC(=O)[C@@H]1CCCN1C(=O)[C@H](CCCNC(=N)N)NC(=O)[C@@H]1CCCN1C(=O)[C@H](CCCCN)NC(=O)[C@H](CC(=O)O)NC(=O)[C@@H]1CCCN1C(=O)[C@H](CCCNC(=N)N)NC(=O)C1(N)CCCCC1)C(=O)N1CCC[C@H]1C(=O)N[C@@H](CCCNC(=N)N)C(=O)N1CCC[C@H]1C(=O)N[C@@H](CCCNC(=N)N)C(=O)N1CCC[C@H]1C(=O)N1CCC[C@H]1C(=O)N[C@@H](CCCNC(=N)N)C(=O)N1CCC[C@H]1C(=O)N[C@H](C(=O)N[C@@H](CCCNC(=N)N)C(=O)N[C@@H](CSc1c(F)c(F)c(-c2c(F)c(F)c(SC[C@H](NC(=O)[C@H](CCCNC(=N)N)NC(=O)[C@@H](NC(=O)[C@@H]3CCCN3C(=O)[C@H](CCCNC(=N)N)NC(=O)[C@@H]3CCCN3C(=O)[C@@H]3CCCN3C(=O)[C@H](CCCNC(=N)N)NC(=O)[C@@H]3CCCN3C(=O)[C@H](CCCNC(=N)N)NC(=O)[C@@H]3CCCN3C(=O)[C@H](CC(C)C)NC(=O)[C@H](Cc3ccc(O)cc3)NC(=O)[C@@H]3CCCN3C(=O)[C@H](CCCNC(=N)N)NC(=O)[C@@H]3CCCN3C(=O)[C@H](CCCCN)NC(=O)[C@H](CC(=O)O)NC(=O)[C@@H]3CCCN3C(=O)[C@H](CCCNC(=N)N)NC(=O)C3(N)CCCCC3)C(C)C)C(=O)NN)c(F)c2F)c(F)c1F)C(=O)NN)C(C)C; test = time-kill; setting = 4 × MIC, 60 min; endpoint = reduction in viable count; result = 1.81 log CFU/mL
Structure (SMILES) = CC[C@@H](C)[C@@H](NC(=O)[C@@H](C)NC(=O)[C@@H](CCCCN)NC(=O)[C@@H](CC(C)C)NC(=O)[C@@H](C)NC(=O)[C@H](NC(=O)[C@@H](Cc1c[nH]cn1)NC(=O)[C@@H](CC(C)C)NC(=O)[C@H](NC(=O)[C@H](NC(=O)[C@@H](CCCCN)NC(=O)[C@H](NC(=O)[C@@H](C)NC(=O)[C@@H](CO)NC(=O)[C@@H](CCCCN)NC(=O)[C@@H](Cc1ccccc1)NC(=O)[C@H](NC(=O)[C@@H](CCCCN)NC(=O)[C@@H](CC(C)C)NC(=O)[C@@H](Cc1ccccc1)NC(=O)[C@@H](CO)NC(=O)[C@@H](CCCCN)NC(=O)[C@@H](Cc1c[nH]c2ccccc12)NC(=O)[C@@H](CCCCN)NC(C)=O)[C@H](C)O)C(C)C)[C@H](C)O)C(C)C)[C@H](C)O)C(=O)N[C@H](CO)C(=O)N[C@H](CO)C(N)=O; test system = 11 isolates; how to read = baseline: HC50 over geometric mean MIC; endpoint = therapeutic index; result = 2.57
Structure (SMILES) = Oc1cc(C(F)(F)F)ccc1-c1nc2c(C(F)(F)F)cc(C(F)(F)F)cc2[nH]1; test = colistin potentiator; test system = AB 3941, colistin-resistant; setting = 5 µM; endpoint = MIC of colistin; result = 0.5 µg/mL
Structure (SMILES) = CCn1c(-c2ccc(-c3ccc(F)cc3)cc2)c(-c2ccc(-c3ccc(F)cc3)cc2)n(CC)c1=[Se+][Au-][P+](CC)(CC)CC.[Cl-]; test = refers to: TrxB; test system = carbapenem-resistant; setting = concentration not given, 2 h; endpoint = mRNA level; result = no effect

Some of these lines once more:
Structure (SMILES) = Oc1cc(C(F)(F)F)ccc1-c1nc2c(C(F)(F)F)cc(C(F)(F)F)cc2[nH]1; test = colistin potentiator; test system = AB 3941, colistin-resistant; setting = 5 µM; endpoint = MIC of colistin; result = 0.5 µg/mL
